Results gathered from unrelated publications.
Compare with care: the assays were run in different laboratories. Numbers after ± are the reported error.

| Structure (SMILES) | organism | assay | test system | conditions | IC50 |
| --- | --- | --- | --- | --- | --- |
| O=c1c2cc([N+](=O)[O-])ccc2n(CCN2CCCCC2)n1Cc1ccccc1 | Leishmania amazonensis | parasite growth, resazurin |  | 72 h, promastigote | 24.2 µM |
| O=[N+]([O-])c1ccc(/C=N/N=C/c2ccc(O)cc2)o1 | Trypanosoma equiperdum | parasite growth, CellTiter-Glo | IVM-t1 bloodstream form | 72 h | 5.01 ± 1.18 µM |
| O=[N+]([O-])/C(Br)=C/c1ccco1 | Leishmania amazonensis, L. infantum, L. braziliensis |  | promastigotes | mean of three species | 1.9 µM |
| COC1C=COC2(C)Oc3c(C)c(O)c4c(c3C2=O)C2=NC3(CCN(CC(C)C)CC3)NC2=C(NC(=O)C(C)=CC=CC(C)C(O)C(C)C(O)C(C)C(OC(=O)Nc2cscn2)C1C)C4=O (stereo not drawn) | Mycobacteroides abscessus |  | ATCC 19977 | 50% human serum | 0.05 µM |
| O=[N+]([O-])/C=C/c1ccco1 | Leishmania amazonensis | parasite growth |  | 72 h, promastigote | 4.7 µM |
| COC(=O)C1=CO[C@@H](C)[C@@H]2Cn3ccc4c5ccccc5nc-4c3C[C@H]12 | Plasmodium falciparum | parasite growth, [3H]-hypoxanthine incorporation | 3D7 | 96 h | 0.17 ± 0.03 µM |
| CCCCCCCCCC1CC2CCC3CC(CCCCCCCCC)NC(=N1)N23 (stereo not drawn) | Aspergillus fumigatus | microbial growth | ATCC204305 |  | 5.46 µM |
| CC(C)=CCC/C(C)=C/CNCCNC1C2CC3CC(C2)CC1(O)C3 (stereo not drawn) | Mycolicibacterium smegmatis | microbial growth |  |  | 14 µM |
| O=[N+]([O-])c1ccc(/C=N/N=C/c2ccccc2)o1 | Trypanosoma equiperdum | parasite growth, CellTiter-Glo | IVM-t1 bloodstream form | 72 h | 3.49 ± 1.89 µM |
| NCCCn1c2ccc([N+](=O)[O-])cc2c(=O)n1Cc1ccccc1 | Leishmania amazonensis | parasite growth, imaging | mouse Peritoneal macrophage | 48 h, intracellular, amastigote | 8 µM |
| O=[N+]([O-])c1ccc(/C=N/N=C/c2ccc(OCc3ccccc3)cc2)s1 | Trypanosoma equiperdum | parasite growth, CellTiter-Glo | IVM-t1 bloodstream form | 72 h | 10.5 ± 3.76 µM |
| C=Cn1c2ccc([N+](=O)[O-])cc2c(=O)n1Cc1ccccc1 | Leishmania amazonensis | parasite growth, resazurin |  | 72 h, promastigote | 1 µM |
| CCOC(=O)C(CC)NC(=O)CN1C(=O)S/C(=C\c2ccc([N+](=O)[O-])cc2)C1=O (stereo not drawn) | Trypanosoma equiperdum | cell viability | IVM-t1 | 72 h | > 66 µM |
| O=c1c2cc([N+](=O)[O-])ccc2n(CCO)n1Cc1ccccc1 | Leishmania amazonensis | parasite growth, resazurin |  | 72 h, promastigote | 1.3 µM |
| CCOC(=O)C(NC(=O)CN1C(=O)N/C(=C\c2ccc3c(c2)OCO3)C1=O)C(C)C (stereo not drawn) | Trypanosoma equiperdum | cell viability | IVM-t1 | 72 h | > 66 µM |
| O=[N+]([O-])c1ccc(/C=N/N=C/c2ccc(Br)cc2)s1 | Trypanosoma equiperdum | parasite growth, CellTiter-Glo | IVM-t1 bloodstream form | 72 h | 1.04 ± 0.35 µM |
| CCOC(=O)C(NC(=O)CN1C(=O)/C(=C/c2ccc3c(c2)OCO3)SC1=S)C(C)C (stereo not drawn) | Trypanosoma equiperdum | cell viability | IVM-t1 | 72 h | > 69 µM |

| Structure (SMILES) | organism | assay | test system | conditions | IC50 |
| --- | --- | --- | --- | --- | --- |
| CC(C)(C)c1ccc(OC(=O)/C=C/C#N)cc1 | Leishmania amazonensis | parasite growth, resazurin |  | 72 h, promastigote | 20 µM |
| CC(C)=CCCC1(C)CC=NO1 (stereo not drawn) | Mycolicibacterium smegmatis | microbial growth |  |  | > 500 µM |
| CCOC(=O)C(C)NC(=O)CN1C(=O)S/C(=C\c2ccc(F)cc2)C1=O (stereo not drawn) | Trypanosoma equiperdum | cell viability | IVM-t1 | 72 h | > 64 µM |
| O=[N+]([O-])/C=C/c1ccc(Br)o1 | Leishmania amazonensis, L. infantum, L. braziliensis |  | promastigotes | mean of three species | 1.33 µM |
| CN(C(=O)c1ccc2ncc(-c3ccc(C(F)(F)F)cc3)n2n1)c1ccc(C#N)cc1 | Plasmodium yoelii | liver schizont development, high-content imaging | HepG2-A16-CD81-EGFP |  | < 0.16 µM |
| O=[N+]([O-])c1ccc(/C=N/N=C/c2ccccc2)s1 | Trypanosoma equiperdum | parasite growth, CellTiter-Glo | IVM-t1 bloodstream form | 72 h | 0.33 ± 0.09 µM |
| CC(=O)OCCn1c2ccc([N+](=O)[O-])cc2c(=O)n1Cc1ccccc1 | Leishmania amazonensis | parasite growth, imaging | mouse Peritoneal macrophage | 48 h, intracellular, amastigote | 0.46 µM |
| CCN(CC)CC#CCNc1ccnc2cc(Cl)ccc12 | Plasmodium falciparum | parasite growth, SYBR Green I | 3D7 | mean of experiments | 0.043 ± 0.005 µM |
| Cc1ccc(/C=N/N=C/c2ccc([N+](=O)[O-])o2)cc1 | Trypanosoma equiperdum | parasite growth, CellTiter-Glo | IVM-t1 bloodstream form | 72 h | 4.04 ± 0.53 µM |
| CCC(NC(=O)CN1C(=O)N/C(=C\c2ccc(C)cc2)C1=O)C(=O)OC (stereo not drawn) | Trypanosoma equiperdum | cell viability | IVM-t1 | 72 h | > 64 µM |
| O=c1c2cc([N+](=O)[O-])ccc2n(CCN2CCCC2)n1Cc1ccccc1 | Leishmania amazonensis | parasite growth, imaging | mouse Peritoneal macrophage | 48 h, intracellular, amastigote | 6.3 µM |
| O=C1Nc2ccc(Cl)cc2C1=Cc1ccc(-c2cccc(C(=O)NCC3CCNCC3)c2)o1 (mixture of isomers) | Ancylostoma ceylanicum | motility | adult worms | 48 h | 5.6 µM |
| COC(=O)Cn1c2ccc([N+](=O)[O-])cc2c(=O)n1Cc1ccccc1 | Leishmania amazonensis | parasite growth, imaging | mouse Peritoneal macrophage | 48 h, intracellular, amastigote | > 10 µM |
| COc1ccc(/C=N/N=C/c2ccc([N+](=O)[O-])o2)cc1 | Trypanosoma equiperdum | parasite growth, CellTiter-Glo | IVM-t1 bloodstream form | 72 h | 3.15 ± 0.53 µM |
| NCCn1c2ccc([N+](=O)[O-])cc2c(=O)n1Cc1ccccc1 | Leishmania amazonensis | parasite growth, imaging | mouse Peritoneal macrophage | 48 h, intracellular, amastigote | 8.5 µM |
| O=[N+]([O-])c1ccc(/C=N/N=C/c2ccc(O)cc2)s1 | Trypanosoma equiperdum | parasite growth, CellTiter-Glo | IVM-t1 bloodstream form | 72 h | 0.5 ± 0.09 µM |

A few entries again:
| Structure (SMILES) | organism | assay | test system | conditions | IC50 |
| --- | --- | --- | --- | --- | --- |
| O=[N+]([O-])/C=C/c1ccc(Br)o1 | Leishmania amazonensis, L. infantum, L. braziliensis |  | promastigotes | mean of three species | 1.33 µM |
| O=[N+]([O-])/C(Br)=C/c1ccco1 | Leishmania amazonensis, L. infantum, L. braziliensis |  | promastigotes | mean of three species | 1.9 µM |
| CCN(CC)CC#CCNc1ccnc2cc(Cl)ccc12 | Plasmodium falciparum | parasite growth, SYBR Green I | 3D7 | mean of experiments | 0.043 ± 0.005 µM |
